# Experimental data from different studies.
# Each numbered part is a random draw from the data of one study; scales do not carry over between parts. Substitutions count along the parent as printed.

# Set 1
# Target: ABI1, truncated, D143A, DHFR fusion (Arabidopsis thaliana)
# Technique: DHFR PCA, deep sequencing
# Matrix: yeast
# Notes: methotrexate growth selection, single substitutions
# With: (+)-ABA 17 µM
# Baseline: wild-type fitted maximum
# Direction: higher = stronger binding
# Starting sequence: PYL1, truncated, DHFR fusion (Arabidopsis thaliana); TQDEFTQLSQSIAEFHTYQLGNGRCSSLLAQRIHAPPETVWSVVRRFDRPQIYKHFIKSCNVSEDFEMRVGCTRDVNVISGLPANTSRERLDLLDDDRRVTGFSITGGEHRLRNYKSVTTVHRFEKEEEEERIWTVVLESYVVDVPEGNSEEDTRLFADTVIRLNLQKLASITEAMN
Change,relative binding score [%]
R24L,66.3
V137R,-9.78
L94C,43.8
N77L,78.7
N114C,17.5
M176W,79.6
T6M,84.6
R99Y,103
T135D,3.63
E67R,77.3
R132Q,100
K116L,-4.97
N22K,87
S117F,0.28
N22A,88
L8E,19.6
E64D,88.5

# Set 2
# Target: RNA binding protein fox-1 homolog 2, RRM domain, GST-SBP tag (RBFOX2, Homo sapiens, UniProt O43251-10, residues 100-194)
# Technique: RNA Bind-n-Seq
# Form: RNA
# Matrix: in vitro
# Concentration: 365 nM
# Notes: natural RNA segment, single round, ends assumed
# Baseline: no-protein control
# Direction: higher = stronger binding
# Shared flanks, not repeated: GGGAGUUCUACAGUCCGACGAUC … UGGAAUUCUCGGGUGCCAA
Sequence,RBNS enrichment (R)
CCUAGGGUGCCACUGAAUAAGAGACAGUAGAGAGCCCUGUCCUCUGGGGAUACAGCACCUGCUUCACCGCUGCCUCGUGUGUGUGAAGACCAAGGAGACCCCCAAGGGUA,0.377
AGCUGGGCUUCCUUUGUUGGAGUCAACUGUUGAUGCUUCCAGGCCAAACUGGCUUCCUCUCCUCCUCUCCCCACCUUUGCCAUUCUUAAGUAUUGAAUGUACUUUGUAUA,0.511
AGCAUACAUUGUAAAUUUGUAUUGUUUUAAAUACAGUAUUGUUUGCUGAAGCAUUGUAAUCAAGUUUGUAUUGUACAGUCAAAUGUAAGAAAAUAAAAAAAUUCUAGUCU,1.3
CUAUAGUUUCCAAAGAAACUUAACUUCCUGGGUAUUAACUUAAUUUUAUUAGAACACUGCAGUUGACUGAAAACAUGCAGAUGCACUGGAAGAGAACCUUGUGCUGAGGU,0.401
CCCUCCCACCACCAGCUCUAAGAUUCUAGGAUAGUCUUGAUAACAUUUCAGUACCUGAAUAGAUGUCAUUUUGUGUUGGUAUAUUCCUCUGCAAAAAGUAUUUUCAAUCU,0.366
CUGCACUUUUCCUUUCCAAAUGCAUCUCGUUGGAUAUGGAAUAGAUCGUAGAUGUUGUAGACUGAGAUUUGGGACUAUGUUGGGACCGUACAGGUGAAUGUGCCACCUCC,11.1
CCACUCUCCGCUAAGCGGGAGGCUGCUGUUAGAGCAGGCUGCUUCCUGCCUAAAGCAGGCCCUUCGGGGCUCGCUGCACACACAUCUCUGGCUCUCCAGGCUUCGUGUUC,0.371
UAAAGUGAAAAAGGAGAGAGACCCUUGAACCACUGGGCAGCCACCUCCUUUGCCCUAGACCAGCUCCUCUCCAAUCCUGAGGGCCCCUCCCCCAACCCAACUCGACCCUC,0.571

# Set 3
# Target: Histone acetyltransferase KAT6A, winged helix 1, GST fusion (KAT6A, Homo sapiens, UniProt Q92794, residues 1-85)
# Technique: protein binding microarray
# Form: double-stranded DNA, one strand shown
# Matrix: in vitro
# Concentration: not given
# Notes: 8-mer, flanks averaged, mean of 2 arrays, mostly near background
# Baseline: not given
# Direction: higher = stronger binding
# Construct (chain): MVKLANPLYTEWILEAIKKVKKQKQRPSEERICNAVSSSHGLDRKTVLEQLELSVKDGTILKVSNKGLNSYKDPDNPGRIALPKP
Sequence,E-score
AGTGATAG,-0.235
TAAGCATA,-0.149
TGATCACA,-0.0865
CCAGCGTA,0.0948
AATGTGCA,-0.147
ACAGGGCA,-0.242
AGCGACAA,-0.042
GAGCCCCA,-0.169
CATAGCTA,-0.0244
ACTTTCTG,-0.121
ACATAGCT,-0.14
GGCCAGAA,-0.129
GGCCAATA,0.0142
AAAATAAG,-0.181
CGATGGTC,-0.0175
TGCCGCCA,0.351
ACATGGGA,-0.114
ATACGCGG,0.348
CCCAGAAG,-0.186
GAAACCGA,0.077
GACTTACC,0.0774
CGGCGGCC,0.471
CTGTTAGC,-0.0981
GGTGCTTA,0.0431

# Set 4
# Target: CCNF, cyclin fold, Cln2 fusion (human)
# Technique: yeast growth competition, sequencing
# Matrix: yeast
# Notes: strong parent motif
# Baseline: not given
# Direction: higher = stronger binding
# Starting sequence: CDKN1B docking peptide (human); PSACRNLFGPVDH
Change,normalised enrichment score
QSACRNLFGPVDH [P1Q],7.6
PKACRNLFGPVDH [S2K],7.44
PSLCRNLFGPVDH [A3L],7.5
PSACRNLFGPVDI [H13I],7.03
PSRCRNLFGPVDH [A3R],1.19
PVACRNLFGPVDH [S2V],6.09
PSACNNLFGPVDH [R5N],-0.287
ISACRNLFGPVDH [P1I],7.76
PSACRNLFFPVDH [G9F],6.63
PSACRNLFGPWDH [V11W],7.77
PSACRNLFEPVDH [G9E],4.4
PSACKNLFGPVDH [R5K],3.79
NSACRNLFGPVDH [P1N],6.04
PSACRELFGPVDH [N6E],5.36
PSACRNLFGPVHH [D12H],6.96
PSACRNLFGFVDH [P10F],7.92
PSYCRNLFGPVDH [A3Y],5.79
PSACRNRFGPVDH [L7R],0.703
PSACRNLKGPVDH [F8K],0.719
PSACRNLFGPMDH [V11M],6.88
PSPCRNLFGPVDH [A3P],5.77
PSACRNLFGPPDH [V11P],7.43
PAACRNLFGPVDH [S2A],7.43

# Set 5
# Target: Transcriptional repressor CTCF (CTCF, Homo sapiens, UniProt P49711, residues 1-727, full length assumed)
# Chain of UniProt P49711 (whole entry, looked up): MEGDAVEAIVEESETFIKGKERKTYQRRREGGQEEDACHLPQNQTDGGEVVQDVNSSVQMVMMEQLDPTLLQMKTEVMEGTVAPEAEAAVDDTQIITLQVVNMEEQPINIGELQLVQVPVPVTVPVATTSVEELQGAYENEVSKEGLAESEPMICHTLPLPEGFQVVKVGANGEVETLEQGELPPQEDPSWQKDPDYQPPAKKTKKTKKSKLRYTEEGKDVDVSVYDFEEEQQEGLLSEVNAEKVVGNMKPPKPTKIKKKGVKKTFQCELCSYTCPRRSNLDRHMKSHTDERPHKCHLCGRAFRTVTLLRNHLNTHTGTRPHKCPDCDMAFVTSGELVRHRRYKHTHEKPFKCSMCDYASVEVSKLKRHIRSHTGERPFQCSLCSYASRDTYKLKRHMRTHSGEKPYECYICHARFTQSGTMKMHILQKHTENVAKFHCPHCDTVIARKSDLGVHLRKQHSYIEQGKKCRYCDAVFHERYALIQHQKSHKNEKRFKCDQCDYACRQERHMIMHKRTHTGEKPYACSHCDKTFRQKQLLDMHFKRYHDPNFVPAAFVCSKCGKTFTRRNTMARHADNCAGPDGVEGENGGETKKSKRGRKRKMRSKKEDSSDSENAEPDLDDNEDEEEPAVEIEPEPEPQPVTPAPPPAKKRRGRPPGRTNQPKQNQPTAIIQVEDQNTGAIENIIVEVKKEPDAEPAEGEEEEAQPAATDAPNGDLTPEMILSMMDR
# Technique: protein-binding microarray
# Form: double-stranded DNA, one strand shown
# Matrix: in vitro
# Concentration: not given
# Notes: k-mer, scored over probes, only values ≥0.25
# Direction: higher = stronger binding
Sequence,E-score
GTGTTATA,0.333
ATTGAAAA,0.275
TGTGATAA,0.328
TAATAATA,0.369
ACCGCAAC,0.291
GTTTGGTA,0.318
ATCCAAAC,0.252
ATCTTGCA,0.263
ATAACAAA,0.28
CCTATAGG,0.278
GTGTCATA,0.291
GCTGCAAA,0.284
AGATAATA,0.304
ACGCGCGT,0.294
ATACACAT,0.34
AACATACA,0.263
ATTATTAA,0.356
CTGCGCGA,0.271
ATGCGCAG,0.319

# A few entries again (set 5):
Sequence,E-score
ACCGCAAC,0.291
GTTTGGTA,0.318
ATCCAAAC,0.252
ATCTTGCA,0.263
ATAACAAA,0.28
CCTATAGG,0.278
GTGTCATA,0.291
GCTGCAAA,0.284
AGATAATA,0.304
ACGCGCGT,0.294
ATACACAT,0.34
AACATACA,0.263
ATTATTAA,0.356
CTGCGCGA,0.271
